Experimental data gathered from unrelated publications.
Every numbered part comes from another study and shows a few of its results, in no order. Substitutions count along the parent as printed.

Sample 1
Target: Sal-like protein 4, full length isoform B (SALL4, Homo sapiens, UniProt Q9UJQ4-2, residues 1-616)
Technique: universal PBM
Form: double-stranded DNA, one strand shown
Medium: in vitro
Concentration: not given
Setting: 8-mer, flanks averaged, mean of replicates
Reading: higher = stronger binding
The E-score of `GACAGGCC` is reported as -0.249.
With `ACGTGACA` the E-score was 0.00287.
The E-score of `ATCCTAGA` is reported as 0.0719.
With `CTCGGCCC` the E-score was -0.296.
`CGATCCGC` gave an E-score of -0.277.
`ACGCCCGC` has an E-score of -0.305.
`AAAGATGT` gave an E-score of 0.201.
For `CAACAAAA`, the E-score was 0.256.
`CTGGGATC` gave an E-score of -0.228.
`GCAAAGAA` has an E-score of -0.0445.
For `ACGAACAG`, the E-score was 0.0717.
`GTGCTTTA` has an E-score of 0.0809.
`CTTGCACC` has an E-score of -0.152.
`CCGTTTCC` gave an E-score of -0.143.
`ACACCCAT` gave an E-score of 0.102.
`TAGAATCA` gave an E-score of 0.136.
The E-score of `AGGAGGGG` is reported as -0.223.
With `ATCGTTTA` the E-score was 0.241.
`ACCCCCGT` has an E-score of -0.332.
`GATGTTCC` gave an E-score of -0.14.
`CGTGTTTC` has an E-score of -0.0286.
`GAAACGTC` gave an E-score of -0.0581.
The E-score of `ACATGATG` is reported as 0.11.
`AAAGCTTT` gave an E-score of 0.0592.
The E-score of `GGGGGAAA` is reported as -0.0361.

Sample 2
Target: TAR DNA-binding protein 43, full length, His tag (TARDBP, Homo sapiens, UniProt Q13148, residues 1-414)
Technique: RNA Bind-n-Seq
Form: RNA
Medium: in vitro
Concentration: 20 nM
Setting: 6-mer, flanks averaged, single round
Added: 150 mM KCl
Baseline: input library
Reading: higher = stronger binding
`AACAUA`: “6-mer enrichment (R)” 0.638.
Under “6-mer enrichment (R)”, `GCCCGU` is recorded as 0.738.
`UCUAUA` — result for “6-mer enrichment (R)”: 0.551.
For `AAUGAC`, “6-mer enrichment (R)” read 0.666.
`ACCUUU`: “6-mer enrichment (R)” 0.625.
`UCGAGU`: “6-mer enrichment (R)” 0.78.
`AUUUUC` — result for “6-mer enrichment (R)”: 0.625.
`GAGUUG`: “6-mer enrichment (R)” 1.31.
Under “6-mer enrichment (R)”, `CCUGAG` is recorded as 0.865.
Under “6-mer enrichment (R)”, `CGGGAC` is recorded as 2.09.
`UCAGUG`: “6-mer enrichment (R)” 0.89.
`GCAGGA`: “6-mer enrichment (R)” 1.63.
Under “6-mer enrichment (R)”, `ACGGUA` is recorded as 0.779.
For `UGGGCA`, “6-mer enrichment (R)” read 2.15.
`CGGUGU`: “6-mer enrichment (R)” 1.27.
Under “6-mer enrichment (R)”, `UAGAGC` is recorded as 0.815.
`GAUCUC`: “6-mer enrichment (R)” 0.604.
`GCAUGA` — result for “6-mer enrichment (R)”: 1.04.

Sample 3
Target: RNA binding protein fox-1 homolog 2, RRM domain, GST-SBP tag (RBFOX2, Homo sapiens, UniProt O43251-10, residues 100-194)
Technique: RNA Bind-n-Seq
Form: RNA
Medium: in vitro
Concentration: 365 nM
Setting: natural RNA segment, single round, ends assumed
Baseline: no-protein control
Reading: higher = stronger binding
Constant ends, left off below: GGGAGUUCUACAGUCCGACGAUC … UGGAAUUCUCGGGUGCCAA
Construct (chain): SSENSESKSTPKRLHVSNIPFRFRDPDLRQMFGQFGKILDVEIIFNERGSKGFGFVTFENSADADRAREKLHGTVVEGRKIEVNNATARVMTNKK
`GGAAUGGUGUUGAGGCUACCAAGAAGAAAUCCAUGCAGCCACUUUGGGUUUUGUUAUAGGCAUCAGUCUAACAAGUCAUUAGGUCACUCGGGAAGGGGGAAAAAGUUUAA`: “RBNS enrichment (R)” 1.26.
For `CUCAGGGCCACUUUGAGUGUGAUGAGAUACCCAGGAACACGUGUGCCCACAGCUGAAGUUUUACAUUACGUUUUCAAUUAAGUUGCCAACAUUUUAACAACUGGCACACA`, “RBNS enrichment (R)” read 0.402.
`AAGCAAAAAACAAACAAACAUAGUGGGCCCUCGUCUAGAUCAUGAUGUGCCAGUUUCUGAGACAUCUUUUUAAGGCUCUUACUGCAGCUCCCCUCCCCACCCUCCUCUUC` — result for “RBNS enrichment (R)”: 0.265.
For `AGGACCACUGCACCACAGGCCUUGUCCAGUGUUCUAUCCCCUCUGAAGAGUCAGGCGAGGCCUGAUGGCUUUUAGGCCUUUCAUUCAACCAAUGUCAUUGUCCAAACAGA`, “RBNS enrichment (R)” read 0.359.
`GUGACCUGAAUGUGCUCACACCCACUGGCUUCUAGAGCCCUCUUUCCAGGGAUUCUGGUAAAGGUGGUUUCUUGCAUCCCACUCCCCUUUUACCUUGGCUUUGACAUAGG` — result for “RBNS enrichment (R)”: 0.808.
Under “RBNS enrichment (R)”, `UUUAAGGAUGAGCCAAUAGUAAGAAUGUGGCUGUAAUCAGCAGAGACCCCUCUGAGGGGUAUCUGUUCUGCAGCCCCUAGUGAAAUCAUGUGAUGUGAGACAGAAACCUA` is recorded as 0.44.
Under “RBNS enrichment (R)”, `UCUCACCUGUUUCCCCACAAAGGGAAUUUCUCACUCUGGUUGGAAGCACAAACACUGAAAUGUCUACGUUUCAUUUUGGCAGUAGGGUGUGAAGCUGGGAGCAGAUCAUG` is recorded as 0.299.
For `CCCUUGUCUACCCUGCUUUAAGAGGGUGAAUGACGGAAUAGACUUUAUGGUGUCAGUGAGUAGUUUGUAUUAGAAUAAUUUUCCUAUUUCCUACCUUGCUUUCUAGAAAG`, “RBNS enrichment (R)” read 0.363.
`AGGGCCAUCUGCCUGAAUGUAACCUGCUAGCUCUCCGAAGGCCCUGCGGGCCUGGCUUGUGUGAGCGUGUGGACAGUGGUGGCCGCGCUGUGCCUGCUCGUGUUGCCUAC`: “RBNS enrichment (R)” 0.94.
`UUUUAAGGAGAAAAAGAAACUUAUUUAAGAUUCUGAAGGUGCUACUAUUUUCUGUUGCCACAGGCUUUAAAGAAACUUUCUGAAUGGGGCCUGGCCCACUUCUCUUUCUC`: “RBNS enrichment (R)” 0.5.
Under “RBNS enrichment (R)”, `UUAAUGAUUAGCUGUGGUUAUGAUCUUGAGCCCUAACAUGCCACAUUACUCAAGAUUUACACAGGCAAGUGACUUCAUUUGGCACUGCUAAUAAUGGCAGGUGAACAUUC` is recorded as 0.401.
For `GACGGGCAGGGUCUCCUGAGCAGCAGGUGGCUCGAGGCGGUUAGCAGGCUCCAGCAGCUCCCUUCUUCCUUCCCUCUGUGCCCGUGGCGUCUGCUUCCCAUCCUGGGAGU`, “RBNS enrichment (R)” read 0.343.

Sample 4
Target: Histone acetyltransferase KAT6A, winged helix 1, GST fusion (KAT6A, Homo sapiens, UniProt Q92794, residues 1-85)
Technique: protein binding microarray
Form: double-stranded DNA, one strand shown
Medium: in vitro
Concentration: not given
Setting: 8-mer, flanks averaged, mean of 2 arrays, mostly near background
Baseline: not given
Reading: higher = stronger binding
Construct (chain): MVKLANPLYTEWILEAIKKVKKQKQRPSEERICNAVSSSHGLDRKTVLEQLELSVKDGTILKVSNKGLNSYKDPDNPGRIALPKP
With `CGGTACGC` the E-score was 0.375.
`AGATGGAG` has an E-score of -0.0777.
For `CCGTCTCC`, the E-score was 0.29.
`AAGCGACC` gave an E-score of 0.111.
`AGCACGGC` gave an E-score of 0.237.
For `AGACTACT`, the E-score was -0.138.
With `GCAAATCC` the E-score was -0.0185.
The E-score of `ATATGTCG` is reported as -0.0202.
With `ACTACCGC` the E-score was 0.291.
`AAACTTTG` gave an E-score of -0.116.
`CTCTGCCA` has an E-score of -0.193.
For `CCTGTCGA`, the E-score was -0.164.
For `AGTCCCTA`, the E-score was -0.0681.
With `TCTTTTCA` the E-score was -0.0441.
The E-score of `GTTAGTGA` is reported as -0.168.
`CCTGCTAA` gave an E-score of -0.198.
With `ACTGAGAG` the E-score was -0.232.
`CGGTACGA` has an E-score of 0.15.
For `GCAACCGC`, the E-score was 0.204.

Sample 5
Target: CCNB1, cyclin fold, Cln2 fusion (human)
Technique: yeast growth competition, sequencing
Medium: yeast
Setting: weak parent motif
Baseline: not given
Reading: higher = stronger binding
Parent: CABLES2 docking peptide (human); ICAKRSLCAAFSV
`ICAKRSLCAAASV [F11A]` — result for “normalised enrichment score”: 0.546.
Under “normalised enrichment score”, `ICAKRSLCAAFAV [S12A]` is recorded as 0.403.
Under “normalised enrichment score”, `ICAKRSLAAAFSV [C8A]` is recorded as 0.0423.
`ICAKASLCAAFSV [R5A]` — result for “normalised enrichment score”: 0.0643.
`ICAKRSLCAAFSA [V13A]` — result for “normalised enrichment score”: 0.359.

Sample 6
Target: JUN, bZIP domain (human)
Technique: DHFR protein complementation
Medium: yeast
Setting: single substitutions, most at no-binding floor
Baseline: wild-type JUN-FOS pair
Reading: higher = stronger binding
Parent: JUN, bZIP domain (human); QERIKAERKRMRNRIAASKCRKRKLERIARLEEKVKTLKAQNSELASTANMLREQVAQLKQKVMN; partner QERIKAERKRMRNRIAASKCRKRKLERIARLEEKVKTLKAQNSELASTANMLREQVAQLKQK
`Q41D` gave a binding fitness of -0.661 natural log.
The binding fitness of `Q55K` is reported as -0.44 natural log.
For `M51R`, the binding fitness was -0.184 natural log.
`E54Q` has a binding fitness of -0.575 natural log.
`S47T` gave a binding fitness of -0.192 natural log.
With `L45Y` the binding fitness was -0.934 natural log.
With `R53T` the binding fitness was -0.691 natural log.
For `L45V`, the binding fitness was -1.19 natural log.
With `K34Q` the binding fitness was 0.0244 natural log.
With `K39L` the binding fitness was -0.11 natural log.
`S47E` has a binding fitness of -0.0164 natural log.
`A46H` has a binding fitness of -0.259 natural log.
For `I28T`, the binding fitness was -0.842 natural log.
For `A29E`, the binding fitness was -0.446 natural log.
`A46V` gave a binding fitness of -0.173 natural log.
`I28Q` has a binding fitness of -0.654 natural log.
For `E54K`, the binding fitness was -0.501 natural log.
For `M51N`, the binding fitness was -0.166 natural log.
`K36A` has a binding fitness of -0.128 natural log.

Sample 7
Target: Myc proto-oncogene protein, bHLH-zipper, MAX partner unstated (MYC, Homo sapiens, UniProt P01106, residues 368-449)
UniProt P01106, sequence (368-449, looked up): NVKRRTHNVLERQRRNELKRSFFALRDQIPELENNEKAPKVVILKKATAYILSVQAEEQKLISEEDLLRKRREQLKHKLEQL
Technique: protein-binding microarray
Form: double-stranded DNA, one strand shown
Medium: in vitro
Concentration: not given
Setting: k-mer, scored over probes, only values ≥0.25
Reading: higher = stronger binding
With `GGTGGGTA` the E-score was 0.293.
With `ACCCACAC` the E-score was 0.257.
With `ACGCGAGC` the E-score was 0.261.
`AACCACGT` gave an E-score of 0.453.
`CATGCCCG` gave an E-score of 0.344.
`AGCCACGC` gave an E-score of 0.45.
For `ACATGTAG`, the E-score was 0.31.
`GGTGGCCA` has an E-score of 0.302.
With `CATGTCGA` the E-score was 0.261.
For `CATGCATA`, the E-score was 0.289.
The E-score of `ACGTGGAA` is reported as 0.406.
With `ACACATGT` the E-score was 0.457.
The E-score of `ATGTGGGA` is reported as 0.301.
For `AGCATGTC`, the E-score was 0.362.
For `ACCACGGG`, the E-score was 0.327.
The E-score of `CGTGGGCA` is reported as 0.37.
`CATGTTCA` has an E-score of 0.344.
`CGGCACGC` gave an E-score of 0.381.
`CCATGGAC` has an E-score of 0.25.
`ACGTGTAA` has an E-score of 0.344.
`AACTCATG` has an E-score of 0.281.
For `ACGCGTCG`, the E-score was 0.308.

Single results of other studies
The fold induction of `PhoQ, residues 284 288 289 292 302 303 TAVSDG` is reported as 0.87 (PhoP, residues 12 14 15 18 19 SYFRT (Escherichia coli, UniProt P23836); Sort-seq, refers to: YFP reporter; E. coli; PhoQ-PhoP variant library, added: 10 µM Mg2+; baseline: high Mg2+ state, higher = stronger signaling).

For quick reference, copied from above (sample 7):
`AACCACGT` gave an E-score of 0.453.
`CATGCCCG` gave an E-score of 0.344.
`AGCCACGC` gave an E-score of 0.45.
For `ACATGTAG`, the E-score was 0.31.
`GGTGGCCA` has an E-score of 0.302.
With `CATGTCGA` the E-score was 0.261.
For `CATGCATA`, the E-score was 0.289.
The E-score of `ACGTGGAA` is reported as 0.406.
With `ACACATGT` the E-score was 0.457.
The E-score of `ATGTGGGA` is reported as 0.301.
For `AGCATGTC`, the E-score was 0.362.
For `ACCACGGG`, the E-score was 0.327.
The E-score of `CGTGGGCA` is reported as 0.37.
`CATGTTCA` has an E-score of 0.344.
`CGGCACGC` gave an E-score of 0.381.
`CCATGGAC` has an E-score of 0.25.
